# Published values collected from several papers.
# Numbered parts are unrelated; each lists some results of a single study.
# Sequence of UniProt P42684 (whole entry, looked up): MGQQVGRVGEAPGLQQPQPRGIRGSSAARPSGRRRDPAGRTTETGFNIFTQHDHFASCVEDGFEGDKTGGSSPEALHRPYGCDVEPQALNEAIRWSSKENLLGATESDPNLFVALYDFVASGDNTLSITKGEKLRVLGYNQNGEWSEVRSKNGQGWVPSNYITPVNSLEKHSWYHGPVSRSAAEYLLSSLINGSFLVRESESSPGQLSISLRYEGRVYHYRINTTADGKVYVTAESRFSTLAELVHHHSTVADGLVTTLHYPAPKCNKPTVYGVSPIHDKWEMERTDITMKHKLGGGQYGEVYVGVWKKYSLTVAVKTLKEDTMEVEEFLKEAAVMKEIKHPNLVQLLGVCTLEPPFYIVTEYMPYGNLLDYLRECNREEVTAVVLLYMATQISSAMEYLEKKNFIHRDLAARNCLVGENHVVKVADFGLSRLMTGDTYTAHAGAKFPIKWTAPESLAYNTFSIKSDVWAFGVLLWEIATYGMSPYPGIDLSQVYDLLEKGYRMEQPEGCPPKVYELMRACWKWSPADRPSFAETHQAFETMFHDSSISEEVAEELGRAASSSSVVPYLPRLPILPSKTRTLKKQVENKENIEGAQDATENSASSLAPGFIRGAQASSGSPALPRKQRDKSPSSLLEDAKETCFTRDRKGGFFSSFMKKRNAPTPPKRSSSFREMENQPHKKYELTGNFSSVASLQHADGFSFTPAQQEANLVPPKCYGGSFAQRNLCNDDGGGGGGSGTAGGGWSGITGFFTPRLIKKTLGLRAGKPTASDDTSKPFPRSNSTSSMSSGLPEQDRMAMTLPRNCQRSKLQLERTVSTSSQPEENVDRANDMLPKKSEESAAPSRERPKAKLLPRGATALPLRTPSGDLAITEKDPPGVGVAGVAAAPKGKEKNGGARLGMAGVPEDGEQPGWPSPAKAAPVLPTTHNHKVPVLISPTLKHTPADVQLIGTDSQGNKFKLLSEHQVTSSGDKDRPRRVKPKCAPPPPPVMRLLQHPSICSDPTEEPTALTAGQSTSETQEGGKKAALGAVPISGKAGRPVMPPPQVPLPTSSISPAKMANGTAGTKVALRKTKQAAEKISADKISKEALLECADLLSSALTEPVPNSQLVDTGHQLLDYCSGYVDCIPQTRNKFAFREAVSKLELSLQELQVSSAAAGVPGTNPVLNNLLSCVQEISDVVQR
# Sequence of UniProt O94921 (whole entry, looked up): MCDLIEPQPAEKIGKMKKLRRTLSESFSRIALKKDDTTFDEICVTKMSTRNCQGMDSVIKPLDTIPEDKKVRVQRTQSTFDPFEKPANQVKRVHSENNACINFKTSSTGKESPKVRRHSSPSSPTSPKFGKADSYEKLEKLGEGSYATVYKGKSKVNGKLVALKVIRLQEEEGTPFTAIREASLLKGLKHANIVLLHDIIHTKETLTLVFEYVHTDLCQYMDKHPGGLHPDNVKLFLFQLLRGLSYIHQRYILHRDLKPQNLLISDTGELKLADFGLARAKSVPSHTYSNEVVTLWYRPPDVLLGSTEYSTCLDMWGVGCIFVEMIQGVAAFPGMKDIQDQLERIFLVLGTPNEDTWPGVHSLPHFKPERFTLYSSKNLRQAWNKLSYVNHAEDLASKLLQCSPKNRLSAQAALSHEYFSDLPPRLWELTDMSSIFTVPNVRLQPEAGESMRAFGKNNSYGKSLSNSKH
# Sequence of UniProt Q8IYT8 (whole entry, looked up): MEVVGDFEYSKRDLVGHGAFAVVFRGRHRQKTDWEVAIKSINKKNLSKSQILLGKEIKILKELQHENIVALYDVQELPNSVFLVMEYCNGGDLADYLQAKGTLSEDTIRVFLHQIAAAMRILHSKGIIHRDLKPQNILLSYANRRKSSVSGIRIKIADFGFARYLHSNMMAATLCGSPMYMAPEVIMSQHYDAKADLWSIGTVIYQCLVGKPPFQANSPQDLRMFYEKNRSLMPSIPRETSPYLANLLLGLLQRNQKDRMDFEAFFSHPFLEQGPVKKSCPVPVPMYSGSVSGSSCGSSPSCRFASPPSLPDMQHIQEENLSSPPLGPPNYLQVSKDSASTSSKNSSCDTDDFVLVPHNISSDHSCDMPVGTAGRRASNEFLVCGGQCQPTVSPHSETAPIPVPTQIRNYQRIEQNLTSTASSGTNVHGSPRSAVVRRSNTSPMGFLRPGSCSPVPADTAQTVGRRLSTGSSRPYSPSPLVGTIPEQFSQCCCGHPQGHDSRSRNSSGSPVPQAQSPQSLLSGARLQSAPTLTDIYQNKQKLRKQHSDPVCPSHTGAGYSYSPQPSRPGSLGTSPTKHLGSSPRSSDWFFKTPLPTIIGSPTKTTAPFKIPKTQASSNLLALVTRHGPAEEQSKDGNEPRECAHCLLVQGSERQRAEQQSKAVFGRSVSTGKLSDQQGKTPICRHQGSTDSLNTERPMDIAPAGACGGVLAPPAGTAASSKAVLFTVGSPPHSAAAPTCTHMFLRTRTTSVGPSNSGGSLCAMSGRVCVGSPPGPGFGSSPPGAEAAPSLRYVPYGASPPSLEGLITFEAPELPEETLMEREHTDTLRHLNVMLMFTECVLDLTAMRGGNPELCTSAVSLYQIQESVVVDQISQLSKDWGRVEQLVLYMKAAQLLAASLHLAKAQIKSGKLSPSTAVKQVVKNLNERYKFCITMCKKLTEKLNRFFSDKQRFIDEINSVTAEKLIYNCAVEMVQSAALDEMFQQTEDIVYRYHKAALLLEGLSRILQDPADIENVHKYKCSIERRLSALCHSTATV
# Sequence of UniProt Q8TDX7 (whole entry, looked up): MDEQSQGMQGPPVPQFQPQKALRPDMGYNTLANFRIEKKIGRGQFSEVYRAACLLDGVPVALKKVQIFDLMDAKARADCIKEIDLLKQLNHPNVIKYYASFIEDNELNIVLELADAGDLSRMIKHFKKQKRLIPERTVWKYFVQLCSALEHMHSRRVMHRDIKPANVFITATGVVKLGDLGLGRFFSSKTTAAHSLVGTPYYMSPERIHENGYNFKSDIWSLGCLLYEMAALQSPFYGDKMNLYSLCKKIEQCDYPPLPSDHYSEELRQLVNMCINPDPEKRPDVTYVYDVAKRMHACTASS
# Sequence of UniProt Q04912 (whole entry, looked up): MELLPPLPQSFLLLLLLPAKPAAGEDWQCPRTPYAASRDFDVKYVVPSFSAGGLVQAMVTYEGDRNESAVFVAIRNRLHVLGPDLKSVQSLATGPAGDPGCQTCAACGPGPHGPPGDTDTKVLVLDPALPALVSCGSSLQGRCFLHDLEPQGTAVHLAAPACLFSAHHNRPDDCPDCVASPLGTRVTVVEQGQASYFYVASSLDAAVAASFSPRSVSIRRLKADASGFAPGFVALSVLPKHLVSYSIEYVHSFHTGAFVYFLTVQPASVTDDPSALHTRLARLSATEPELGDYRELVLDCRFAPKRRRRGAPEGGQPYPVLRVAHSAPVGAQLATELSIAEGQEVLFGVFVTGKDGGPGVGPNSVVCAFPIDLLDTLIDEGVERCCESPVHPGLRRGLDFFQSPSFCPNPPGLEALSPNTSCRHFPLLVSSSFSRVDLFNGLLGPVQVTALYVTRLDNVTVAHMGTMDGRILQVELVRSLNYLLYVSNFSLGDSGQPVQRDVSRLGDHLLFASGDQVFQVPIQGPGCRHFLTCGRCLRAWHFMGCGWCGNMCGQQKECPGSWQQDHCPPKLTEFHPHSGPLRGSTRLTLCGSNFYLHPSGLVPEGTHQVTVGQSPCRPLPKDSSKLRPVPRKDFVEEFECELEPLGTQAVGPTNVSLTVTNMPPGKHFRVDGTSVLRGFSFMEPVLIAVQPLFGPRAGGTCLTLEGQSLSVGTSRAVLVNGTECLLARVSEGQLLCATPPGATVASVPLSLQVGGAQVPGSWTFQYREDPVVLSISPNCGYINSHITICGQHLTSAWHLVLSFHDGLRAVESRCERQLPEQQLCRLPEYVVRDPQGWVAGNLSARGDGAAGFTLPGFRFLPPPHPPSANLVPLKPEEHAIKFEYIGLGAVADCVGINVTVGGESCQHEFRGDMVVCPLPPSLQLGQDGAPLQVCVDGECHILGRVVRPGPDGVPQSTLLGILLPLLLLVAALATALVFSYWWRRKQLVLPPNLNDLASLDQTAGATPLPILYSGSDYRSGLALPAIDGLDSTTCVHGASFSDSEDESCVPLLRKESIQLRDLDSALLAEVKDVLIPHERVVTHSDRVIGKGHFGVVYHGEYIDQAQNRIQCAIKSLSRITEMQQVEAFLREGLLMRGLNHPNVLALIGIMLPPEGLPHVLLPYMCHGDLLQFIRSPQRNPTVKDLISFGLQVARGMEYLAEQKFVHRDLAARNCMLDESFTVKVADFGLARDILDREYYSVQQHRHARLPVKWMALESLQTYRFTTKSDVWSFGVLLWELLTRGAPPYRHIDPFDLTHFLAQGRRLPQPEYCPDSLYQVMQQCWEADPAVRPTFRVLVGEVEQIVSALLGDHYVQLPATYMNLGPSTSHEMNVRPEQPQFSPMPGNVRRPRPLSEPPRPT

# Series 1
# SMILES: N=C(N)NC(=O)c1cnn(-c2cccc3ncccc23)c1C1CC1
# Read-out: β-arrestin recruitment
# Action: agonist
# Technique: PRESTO-Tango
# Concentration: 10 µM
# Baseline: untreated
target,fold over basal
"Glucagon-like peptide 1 receptor (GLP1R, Homo sapiens, UniProt P43220)",0.65 fold
"Vasopressin V1a receptor (AVPR1A, Homo sapiens, UniProt P37288)",1.23
"G-protein coupled estrogen receptor 1 (GPER1, Homo sapiens, UniProt Q99527)",1.41
"Alpha-2B adrenergic receptor (ADRA2B, Homo sapiens, UniProt P18089)",0.72
"CX3C chemokine receptor 1 (CX3CR1, Homo sapiens, UniProt P49238)",1.01
"G-protein coupled receptor 37-like 1 (GPR37L1, Homo sapiens, UniProt O60883)",1.04
"C-C chemokine receptor type 2, isoform B (CCR2, Homo sapiens, UniProt P41597)",0.94
"Galanin receptor type 3 (Homo sapiens, UniProt O60755)",1 fold

# Series 2
# SMILES: O=C(Nc1cccc(Nc2nccc(Nc3cccc(C(F)(F)F)c3)n2)c1)C1CC1
# Read-out: enzyme activity
# Action: inhibitor
# Concentration: 0.5 µM
# Baseline: control
target,remaining activity [%]
"Macrophage-stimulating protein receptor (MST1R, Homo sapiens, UniProt Q04912)",92.6
"Tyrosine-protein kinase JAK3 (JAK3, Homo sapiens, UniProt P52333)",109
"Tyrosine-protein kinase ABL2 (ABL2, Homo sapiens, UniProt P42684)",83.8
"Serine/threonine-protein kinase A-Raf (ARAF, Homo sapiens, UniProt P10398)",90.2
"Angiopoietin-1 receptor (TEK, Homo sapiens, UniProt Q02763)",101
"Tyrosine-protein kinase FRK (FRK, Homo sapiens, UniProt P42685)",92.2
"Rhodopsin kinase GRK7 (GRK7, Homo sapiens, UniProt Q8WTQ7)",101
"Serine/threonine-protein kinase TBK1 (TBK1, Homo sapiens, UniProt Q9UHD2)",91
"Dual specificity mitogen-activated protein kinase kinase 2 (MAP2K2, Homo sapiens, UniProt P36507)",89.2
"Serine/threonine-protein kinase Nek1 (NEK1, Homo sapiens, UniProt Q96PY6)",82.8
"Casein kinase I isoform gamma-3 (CSNK1G3, Homo sapiens, UniProt Q9Y6M4)",93.5
"Fibroblast growth factor receptor 3 (FGFR3, Homo sapiens, UniProt P22607)",95
"Fibroblast growth factor receptor 1 (FGFR1, Homo sapiens, UniProt P11362)",99.6
"Serine/threonine-protein kinase ULK2 (ULK2, Homo sapiens, UniProt Q8IYT8)",107
"Serine/threonine-protein kinase TAO2 (TAOK2, Homo sapiens, UniProt Q9UL54)",92.4
"MAP kinase-activated protein kinase 2 (MAPKAPK2, Homo sapiens, UniProt P49137)",102
"Activin receptor type-1B (ACVR1B, Homo sapiens, UniProt P36896)",110
"Mitogen-activated protein kinase 3 (MAPK3, Homo sapiens, UniProt P27361)",98.2
"Serine/threonine-protein kinase Nek6 (NEK6, Homo sapiens, UniProt Q9HC98)",103
"Casein kinase I isoform gamma-2 (CSNK1G2, Homo sapiens, UniProt P78368)",101
"Mitogen-activated protein kinase kinase kinase 5 (MAP3K5, Homo sapiens, UniProt Q99683)",111
"Tyrosine-protein kinase Mer (MERTK, Homo sapiens, UniProt Q12866)",90.1
"Mitogen-activated protein kinase kinase kinase 14 (MAP3K14, Homo sapiens, UniProt Q99558)",109
"Glycogen synthase kinase-3 beta (GSK3B, Homo sapiens, UniProt P49841)",101
"Ephrin type-A receptor 3 (EPHA3, Homo sapiens, UniProt P29320)",105

# Series 3
# SMILES: CN(c1ccnc(CNc2nc(Nc3ccc4c(c3)CC(=O)N4)ncc2C(F)(F)F)n1)S(C)(=O)=O
# Technique: competition with immobilised ligand
# Concentration: 1 µM
target,read-out,remaining binding
"Cyclin-dependent kinase 14 (CDK14, Homo sapiens, UniProt O94921)",cell-free assay,86%
"Death-associated protein kinase 3 (DAPK3, Homo sapiens, UniProt O43293)",cell-free assay,33%
"Receptor-type tyrosine-protein kinase FLT3 (FLT3, Homo sapiens, UniProt P36888, D835V)",cell-free assay,1.5%
"Vascular endothelial growth factor receptor 2 (KDR, Homo sapiens, UniProt P35968)",cell-free assay,56%
"Macrophage colony-stimulating factor 1 receptor, autoinhibited (CSF1R, Homo sapiens, UniProt P07333)",cell-free assay,100%
"Inhibitor of nuclear factor kappa-B kinase subunit epsilon (IKBKE, Homo sapiens, UniProt Q14164)",cell-free assay,18%
"Serine/threonine-protein kinase 38-like (STK38L, Homo sapiens, UniProt Q9Y2H1)",cell-free assay,75%
"Proto-oncogene tyrosine-protein kinase receptor Ret (RET, Homo sapiens, UniProt P07949, M918T)",cell-free assay,50%
"Discoidin domain-containing receptor 2 (DDR2, Homo sapiens, UniProt Q16832)",cell-free assay,94%
"cAMP-dependent protein kinase catalytic subunit PRKX (PRKX, Homo sapiens, UniProt P51817)",cell-free assay,15%
"Serine/threonine-protein kinase TNNI3K (TNNI3K, Homo sapiens, UniProt Q59H18)",cell-free assay,73%
"Myosin-IIIb (MYO3B, Homo sapiens, UniProt Q8WXR4)",binding,68%
"Receptor-type tyrosine-protein kinase FLT3 (FLT3, Homo sapiens, UniProt P36888, ITD)",cell-free assay,5.5%
"Receptor tyrosine-protein kinase erbB-4 (ERBB4, Homo sapiens, UniProt Q15303)",cell-free assay,46%
"Homeodomain-interacting protein kinase 3 (HIPK3, Homo sapiens, UniProt Q9H422)",cell-free assay,48%
"Tyrosine-protein kinase ABL1, phosphorylated (ABL1, Homo sapiens, UniProt P00519, Y253F)",cell-free assay,45%
"Leukocyte tyrosine kinase receptor (LTK, Homo sapiens, UniProt P29376)",cell-free assay,100%
"Serine/threonine-protein kinase Nek7 (NEK7, Homo sapiens, UniProt Q8TDX7)",cell-free assay,68%
"Dual specificity mitogen-activated protein kinase kinase 6 (MAP2K6, Homo sapiens, UniProt P52564)",cell-free assay,83%
"Serine/threonine-protein kinase RIO3 (RIOK3, Homo sapiens, UniProt O14730)",cell-free assay,8.5%
"Phosphatidylinositol 3-kinase catalytic subunit type 3 (PIK3C3, Homo sapiens, UniProt Q8NEB9)",cell-free assay,84%
"Tyrosine-protein kinase ABL2 (ABL2, Homo sapiens, UniProt P42684)",cell-free assay,75%
"cGMP-dependent protein kinase 2 (PRKG2, Homo sapiens, UniProt Q13237)",cell-free assay,68%
"Tyrosine-protein kinase Blk (BLK, Homo sapiens, UniProt P51451)",cell-free assay,40%
"Tyrosine-protein kinase Lyn (LYN, Homo sapiens, UniProt P07948)",cell-free assay,80%

# Series 4
# Target: Calcium/calmodulin-dependent protein kinase type II subunit alpha (CAMK2A, Homo sapiens, UniProt Q9UQM7)
# Sequence of UniProt Q9UQM7 (whole entry, looked up): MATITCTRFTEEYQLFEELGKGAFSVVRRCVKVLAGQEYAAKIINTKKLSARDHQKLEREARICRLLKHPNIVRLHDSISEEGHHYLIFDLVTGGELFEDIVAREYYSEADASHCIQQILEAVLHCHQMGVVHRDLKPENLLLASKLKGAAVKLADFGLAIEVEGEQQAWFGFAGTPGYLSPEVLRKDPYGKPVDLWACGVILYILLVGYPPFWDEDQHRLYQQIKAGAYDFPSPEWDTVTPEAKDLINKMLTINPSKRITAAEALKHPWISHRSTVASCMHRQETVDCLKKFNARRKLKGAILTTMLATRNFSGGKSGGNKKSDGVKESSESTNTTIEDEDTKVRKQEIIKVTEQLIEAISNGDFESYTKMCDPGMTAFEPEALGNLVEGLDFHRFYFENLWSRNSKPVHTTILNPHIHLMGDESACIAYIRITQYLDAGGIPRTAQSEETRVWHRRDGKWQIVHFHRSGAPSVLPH
# Read-out: enzyme activity
# Action: inhibitor
# Concentration: 10 µM
Structure (SMILES),inhibition [%]
COCC(=O)O[C@]1(CCN(C)CCCc2nc3ccccc3[nH]2)CCc2cc(F)ccc2[C@@H]1C(C)C,0
O=C[C@H](O)[C@H]1OC(=O)[C@@H](O)[C@H]1O,4
CCOC(=O)/C=C(C)/C=C/C=C(C)/C=C/c1c(C)cc(OC)c(C)c1C,-7
CC(=O)Nc1ccn([C@@H]2O[C@H](CO)[C@@H](O)[C@H]2O)c(=O)n1,-27
NC1[C@H]2CN(c3nc4c(cc3F)c(=O)c(C(=O)O)cn4-c3ccc(F)cc3F)C[C@@H]12 (stereo partly shown),-9
C[C@H](CO[C@@H]1O[C@H](CO)[C@@H](O)[C@H](O)[C@H]1O)[C@H]1CC[C@@]2(CC[C@]3(C)[C@H](CC[C@@H]4[C@@]5(C)CC[C@H](O[C@@H]6O[C@H](CO)[C@@H](O)[C@H](O)[C@H]6O[C@@H]6O[C@H](CO)[C@@H](O)[C@H](O)[C@H]6O)[C@@](C)(CO)[C@@H]5CC[C@]43C)[C@H]2O)CO1,-6
CC(=O)O[C@@H]1C[C@H](C)CC[C@H]1C(C)C,13
C[C@H](CC[C@@H](O)C(C)(C)O)[C@H]1CC[C@@]2(C)[C@@H]3CC=C4[C@@H](CC[C@H](O[C@@H]5O[C@H](CO)[C@@H](O)[C@H](O)[C@H]5O)C4(C)C)[C@]3(C)[C@H](O)C[C@]12C,6
C=C1C[C@@]2(O)O[C@@]3(CC2=C(C)C)[C@@H](C)CC[C@@H]13,-16

# Some of these lines once more (series 3):
target,read-out,remaining binding
"Serine/threonine-protein kinase 38-like (STK38L, Homo sapiens, UniProt Q9Y2H1)",cell-free assay,75%
"Homeodomain-interacting protein kinase 3 (HIPK3, Homo sapiens, UniProt Q9H422)",cell-free assay,48%
"Tyrosine-protein kinase Lyn (LYN, Homo sapiens, UniProt P07948)",cell-free assay,80%
"Leukocyte tyrosine kinase receptor (LTK, Homo sapiens, UniProt P29376)",cell-free assay,100%
